Measurements collected from several papers.
Each numbered part is a random draw from the data of one study; scales do not carry over between parts.

Sample 1
Target: Histone acetyltransferase KAT6A, both winged helices, GST fusion (KAT6A, Homo sapiens, UniProt Q92794, residues 1-181)
Technique: protein binding microarray
Molecule type: double-stranded DNA, one strand shown
Medium: in vitro
Concentration: not given
Setting: 8-mer, flanks averaged, mean of 2 arrays, mostly near background
Baseline: not given
Direction: higher = stronger binding
Construct (chain): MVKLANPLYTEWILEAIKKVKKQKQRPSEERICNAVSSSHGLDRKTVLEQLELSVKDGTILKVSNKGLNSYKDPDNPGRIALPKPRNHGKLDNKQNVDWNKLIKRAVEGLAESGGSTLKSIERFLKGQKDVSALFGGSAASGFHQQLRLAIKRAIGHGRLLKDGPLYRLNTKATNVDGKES
The E-score of `AGAGCAAG` is reported as -0.133.
For `ACAGTTCT`, the E-score was 0.0831.
`GATCGACC` gave an E-score of -0.016.
For `CGCAGTTC`, the E-score was 0.209.
The E-score of `GATCAAGA` is reported as 0.0515.

Sample 2
Target: Fragile X messenger ribonucleoprotein 1, C-terminal low-complexity region (Fmr1, Mus musculus, UniProt P35922)
Technique: RNA Bind-n-Seq
Molecule type: RNA
Medium: in vitro
Concentration: 200 nM
Setting: whole 134-nt RNA, ends assumed
Together with: 150 mM LiCl
Baseline: input library
Direction: higher = stronger binding
Library: 7-deaza-guanosine replaces G
For `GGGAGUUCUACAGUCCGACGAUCUGGCCCUGGUGGCAUGCGGGGAGGAAGAGGUGGCCUCAUGGAUCGUGGUGGUCCCGGUGGAAUGUUCAGAGCUGGCCGUGGUGGAGACAGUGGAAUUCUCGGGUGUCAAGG`, the log2 enrichment was -1.5.
`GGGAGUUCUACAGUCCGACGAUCACCAUGCAGGUGGGCAUCUUUGGGAAGUGGGAAAAGGGGGGGAUAGGGAGGGGGGUAACACUUUGGGAACAGGUGGUCCCAGGUCGUUUCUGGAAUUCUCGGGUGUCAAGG` has a log2 enrichment of 1.52.
`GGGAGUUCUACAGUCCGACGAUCAGUCCUGUGCUACACAUCGUAUGUACCGAAUCGGGUUUUUUUGGGUGGGAAAAAGGGAAAGUAUUAUGUUACGCCGUUCGGAUCUGCACUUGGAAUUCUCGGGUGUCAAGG` gave a log2 enrichment of -1.73.
With `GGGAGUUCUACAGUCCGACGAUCGUCCUGUGCUACACAUCGUAUGUACCGAAUCGGGAAAAAAGGAAAAAAGGAAAAAAGGAAAGUAUUAUGUUACGCCGUUCGGAUCUGCACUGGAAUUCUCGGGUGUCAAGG` the log2 enrichment was -0.396.
For `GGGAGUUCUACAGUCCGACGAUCGUCCUGUGCUACACAUCGUAUGUACCGAAUCAAAUUUUUUUAAACCCCCAAACCCAAAAAAGUAUUAUGUUACGCCGUUCGGAUCUGCACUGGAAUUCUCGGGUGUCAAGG`, the log2 enrichment was 1.16.
With `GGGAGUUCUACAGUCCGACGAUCAAGUCCUGUGCUACACAUCGUAUGUACCGAAUCGGUUUGGUUUUUGGAAAAAAAGGAAAGUAUUAUGUUACGCCGUUCGGAUCUGCACUUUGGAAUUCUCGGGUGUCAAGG` the log2 enrichment was -2.09.

Sample 3
Target: Prothrombin, mature alpha-thrombin (F2, Homo sapiens, UniProt P00734)
Technique: aptamer microarray, sandwich
Molecule type: DNA with 2'F-ANA
Medium: in vitro
Concentration: 200 nM
Setting: whole 15-mer aptamer, many near background
Together with: Cy3 exosite-II aptamer, 400 nM
Direction: higher = stronger binding
Sequence: GGTTGGTGTGGTTGG
`2'F-ANA at 2 3 4 9 11 12 14 15` — result for “mean fluorescence intensity”: 269 a.u.
`2'F-ANA at 1 5 7 8 9 11 13 14 15` — result for “mean fluorescence intensity”: 47.2 a.u.
Under “mean fluorescence intensity”, `2'F-ANA at 1 3 4 7 9 12 15` is recorded as 433 a.u.
Under “mean fluorescence intensity”, `2'F-ANA at 1 2 3 5 8 11 13 15` is recorded as 60.2 a.u.
`2'F-ANA at 5 6 7 12 13`: “mean fluorescence intensity” 111 a.u.
`2'F-ANA at 4 7 8 10 11 12 14 15`: “mean fluorescence intensity” 63.7 a.u.
`2'F-ANA at 3 5 8 9 12`: “mean fluorescence intensity” 342 a.u.

Other studies, line by line
`PhoQ, residues 284 288 289 292 302 303 SSTLLI` gave a fold induction of 12.6 (PhoP, residues 12 14 15 18 19 SQCLL (Escherichia coli, UniProt P23836); Sort-seq, refers to: YFP reporter; E. coli; PhoQ-PhoP variant library, together with: 10 µM Mg2+; baseline: high Mg2+ state, higher = stronger signaling).

Some of these lines once more (sample 3):
Under “mean fluorescence intensity”, `2'F-ANA at 1 3 4 7 9 12 15` is recorded as 433 a.u.
Under “mean fluorescence intensity”, `2'F-ANA at 1 2 3 5 8 11 13 15` is recorded as 60.2 a.u.
`2'F-ANA at 5 6 7 12 13`: “mean fluorescence intensity” 111 a.u.
